Assay results from different studies.
Lines come from different studies, so protocols differ. Numbers after ± are the reported error.
PRSS1: Serine protease 1 (PRSS1, Bos taurus, UniProt P00760)
Cnr2: Cannabinoid receptor 2 (Cnr2, Mus musculus, UniProt P47936)
MC4R: Melanocortin receptor 4 (MC4R, Homo sapiens, UniProt P32245)

With `CC[C@H](C)[C@H](NC(=O)[C@H](CCC(=O)O)NC(=O)[C@H](Cc1ccc(F)cc1)NC(=O)[C@@H](C)NC(=O)[C@@H](N)Cc1ccc(O)cc1)C(=O)N[C@H](C(=O)NCC(N)=O)[C@@H](C)CC` the Ki was greater than 1000 nM (Kappa-type opioid receptor (Oprk1, Mus musculus, UniProt P33534); ligand displacement, radioligand; cell membranes).
`CC(C)[C@@H](CN1CC[C@@](C)(c2cccc(C(N)=O)c2)[C@@H](C)C1)NC(=O)[C@H]1Cc2ccc(O)cc2CN1` has a Ki of greater than 10000 nM (Voltage-gated inwardly rectifying potassium channel KCNH2 (KCNH2, Homo sapiens, UniProt Q12809); 60 min, pH 7.4).
For `O=C(CCCC[C@@H]1SC[C@@H]2NC(=O)N[C@@H]21)NCCCCCCCCN1[C@H]2[C@H](O)[C@@H](O)[C@H](O[C@@H]3OC[C@@H](O)[C@H](O)[C@H]3O)C[C@H]21` (stereo partly shown), the Ki was 53300 nM (Exo-1,4-beta-xylosidase xlnD (xlnD, Emericella nidulans, UniProt Q5BAS1); covalent inhibitor; Aspergillus nidulans; pH 4.5, ambient, with: 4MU-β-D-xyloside).
For `CC[C@H](C)[C@H](NC(=O)[C@@H]1CSSC[C@H](NC(=O)[C@H](Cc2ccc(O)cc2)NC(=O)CN)C(=O)N[C@@H](CO)C(=O)N[C@@H](CCCNC(=N)N)C(=O)N[C@@H](CO)C(=O)N[C@@H](Cc2ccc(O)cc2)C(=O)N2CCC[C@H]2C(=O)N2CCC[C@H]2C(=O)N[C@@H](C(C)C)C(=O)N1)C(=O)N1CCC[C@H]1C(=O)N[C@@H](CC(=O)O)C(N)=O`, the Ki was 110 nM (PRSS1; enzyme activity, inhibitor).
`O=C(N[C@@H](Cc1ccc2ccccc2c1)C(=O)CCl)OCc1ccccc1` gave a Ki of greater than 100000 nM (PRSS1).
`CCCCCc1cc(O)c2c(c1)OC(C)(C)C1CCC(C(=O)OC3OC(C(=O)O)C(O)C(O)C3O)=CC21` (stereo not shown) has a Ki of 2600 nM (Cytochrome P450 2B6 (CYP2B6, Homo sapiens, UniProt P20813); enzyme activity, inhibitor; human, liver microsomes; pH 7.4).
For `Cc1cc2c(cc1Cl)-c1c(c(C(=O)NN3CCCCC3)nn1-c1ccc(Cl)cc1Cl)C2`, the Ki was 212 nM (Cnr2; ligand displacement, radioligand).
The Ki of `CC(=O)NCCCC[C@H](NC(=O)[C@@H](NC(=O)[C@H](C)NC(=O)[C@H](CC(C)C)NC(=O)[C@H](CCC(N)=O)NC(=O)[C@H](CCCCN)NC(=O)[C@H](CCCNC(=N)N)NC(=O)[C@@H]1CCCN1C(=O)[C@H](C)NC(=O)[C@@H](N)CCCCN)[C@@H](C)O)C(=O)N[C@@H](C)C(=O)N[C@@H](C)C(=O)N[C@@H](CCCNC(=N)N)C(=O)N[C@@H](CCCCN)C(=O)N[C@@H](CO)C(=O)N[C@@H](C)C(=O)N1CCC[C@H]1C(=O)N[C@@H](C)C(=O)O` is reported as 5020 nM (Procathepsin L (CTSL, Homo sapiens, UniProt P07711); enzyme activity, inhibitor, fluorescence; pH 6).
`CC[C@H](C)[C@H](NC(=O)CN)C(=O)N[C@H](C(=O)N[C@@H](CC(N)=O)C(=O)N[C@H](C(=O)N[C@@H](CC(C)C)C(=O)N[C@@H](CCC(N)=O)C(=O)N[C@@H](CCCCN)C(=O)N[C@@H](Cc1ccc(O)cc1)C(=O)N[C@@H](Cc1ccc(O)cc1)C(=O)N[C@H]1CSSC[C@@H]2NC(=O)[C@H](CCCCN)NC(=O)[C@H](CCCNC(=N)N)NC(=O)CNC(=O)[C@H](CCCNC(=N)N)NC(=O)[C@H]([C@@H](C)O)NC(=O)[C@H](CO)NC(=O)[C@@H]3CSSC[C@H](NC(=O)[C@H](CCC(N)=O)NC(=O)CNC(=O)CNC(=O)[C@H](CCC(N)=O)NC(=O)[C@H](C(C)C)NC(=O)[C@H](CCCNC(=N)N)NC1=O)C(=O)N[C@@H](C)C(=O)N[C@@H](C(C)C)C(=O)N[C@@H](CC(C)C)C(=O)N[C@@H](CO)C(=O)N[C@@H](CSSC[C@@H](C(=O)N[C@@H](CCC(N)=O)C(=O)N[C@@H](CCC(N)=O)C(=O)N[C@@H](CCC(N)=O)C(=O)N[C@@H](CCC(N)=O)C(N)=O)NC2=O)C(=O)N[C@@H](CC(C)C)C(=O)N1CCC[C@H]1C(=O)N[C@@H](CCC(N)=O)C(=O)N[C@@H](CCC(=O)O)C(=O)N[C@@H](CCC(=O)O)C(=O)N[C@@H](CCC(N)=O)C(=O)N[C@@H]([C@@H](C)CC)C(=O)NCC(=O)N[C@@H](CCCCN)C(=O)N3)[C@@H](C)O)[C@@H](C)CC` has a Ki of 1570 nM (MC4R; ligand displacement in cells).
`CN(C)CP(C)(=O)O` gave a Ki of 3700 nM (Urease (Canavalia ensiformis, UniProt P07374); enzyme activity, inhibitor, absorbance; pH 7).
For `CCOC(=O)[C@](CC)(CCCSCCOCCOCCNC(=O)c1ccc(-c2c3ccc(=N)c(S(=O)(=O)O)c-3oc3c(S(=O)(=O)O)c(N)ccc23)c(C(=O)O)c1)NC(=O)c1ccc(C2CC2)c(Cc2ccc(F)cc2)n1`, the Ki was 28 nM (Cnr2; ligand displacement, radioligand; cell membranes).
`COc1c(OCCOCCOc2cccc(C(=O)C3CCN(CCc4ccc(F)cc4)CC3)c2OC)cccc1C(=O)C1CCN(CCc2ccc(F)cc2)CC1` has a Ki of 3.1 nM (5-hydroxytryptamine receptor 2A (HTR2A, Homo sapiens, UniProt P28223); ligand displacement, radioligand).
With `CC(=O)N[C@@H](Cc1ccc(O)cc1)C(=O)N[C@@H](CCCNC(=N)NC(=O)NCCCCN)C(=O)N[C@@H](CC(C)C)C(=O)N[C@@H](CCCNC(=N)N)C(=O)N[C@@H](Cc1ccc(O)cc1)C(N)=O` the Ki was greater than 5000 nM (Neuropeptide Y receptor type 2 (NPY2R, Homo sapiens, UniProt P49146); ligand displacement, radioligand).
`CCCc1cc(C(=O)[C@H]2C=CN([C@@H]3O[C@H](COP(=O)(O)OP(=O)(O)OC[C@H]4O[C@@H](n5cnc6c(N)ncnc65)[C@H](O)[C@@H]4O)[C@@H](O)[C@H]3O)C=C2C(N)=O)ccn1` has a Ki of 11 ± 6 nM (inhA (Mycobacterium leprae, UniProt Q9CBM1)).
The Ki of `CC[C@H](C)[C@H](NC(=O)CN)C(=O)N[C@H](C(=O)N[C@@H](CC(N)=O)C(=O)N[C@H](C(=O)N[C@@H](CC(C)C)C(=O)N[C@@H](CCC(N)=O)C(=O)N[C@@H](CCC(N)=O)C(=O)N[C@@H](Cc1ccc(O)cc1)C(=O)N[C@@H](Cc1ccc(O)cc1)C(=O)N[C@H]1CSSC[C@@H]2NC(=O)[C@H](CCC(N)=O)NC(=O)[C@H](CCC(N)=O)NC(=O)CNC(=O)[C@H](CCC(N)=O)NC(=O)[C@H]([C@@H](C)O)NC(=O)[C@H](CO)NC(=O)[C@@H]3CSSC[C@H](NC(=O)[C@H](CCC(N)=O)NC(=O)CNC(=O)CNC(=O)[C@H](CCC(N)=O)NC(=O)[C@H](C(C)C)NC(=O)[C@H](CCC(N)=O)NC1=O)C(=O)N[C@@H](C)C(=O)N[C@@H](C(C)C)C(=O)N[C@@H](CC(C)C)C(=O)N[C@@H](CO)C(=O)N[C@@H](CSSC[C@@H](C(=O)N[C@@H](CCC(N)=O)C(=O)N[C@@H](CCC(N)=O)C(=O)N[C@@H](CCC(N)=O)C(=O)N[C@@H](CCC(N)=O)C(N)=O)NC2=O)C(=O)N[C@@H](CC(C)C)C(=O)N1CCC[C@H]1C(=O)N[C@@H](CCC(N)=O)C(=O)N[C@@H](CCC(=O)O)C(=O)N[C@@H](CCC(=O)O)C(=O)N[C@@H](CCC(N)=O)C(=O)N[C@@H]([C@@H](C)CC)C(=O)NCC(=O)N[C@@H](CCC(N)=O)C(=O)N3)[C@@H](C)O)[C@@H](C)CC` is reported as greater than 5000 nM (MC4R; HEK-293T transfected; 2 h, 37 °C, with: Eu-NDP-MSH).
`CC1(CCN2CCc3ccccc3C2)Cc2cc(Cl)ccc2C1=O` (single isomer, unassigned) has a Ki of 3130 nM (5-hydroxytryptamine receptor 2C (HTR2C, Homo sapiens, UniProt P28335); ligand displacement, radioligand).
`CC1=C[C@H](O/C=C2/C(=O)O[C@@H]3c4ccccc4C[C@H]23)OC1=O` (single isomer, unassigned) gave a Ki of 70 nM (RMS3 (Lathyrus oleraceus, UniProt A0A109QYD3); cell-free assay, inhibitor).
`CC[C@H](C)[C@H](NC(=O)CN)C(=O)N[C@H](C(=O)N[C@@H](CC(N)=O)C(=O)N[C@H](C(=O)N[C@@H](CC(C)C)C(=O)N[C@@H](CCC(N)=O)C(=O)N[C@@H](CCCCN)C(=O)N[C@@H](Cc1ccc(O)cc1)C(=O)N[C@@H](Cc1ccc(O)cc1)C(=O)N[C@H]1CSSC[C@@H]2NC(=O)[C@H](CCCCN)NC(=O)[C@H](CCCNC(=N)N)NC(=O)CNC(=O)[C@H](CCCNC(=N)N)NC(=O)[C@H]([C@@H](C)O)NC(=O)[C@H](CO)NC(=O)[C@@H]3CSSC[C@H](NC(=O)[C@H](CCCNC(=N)N)NC(=O)CNC(=O)CNC(=O)[C@H](CCCNC(=N)N)NC(=O)[C@H](C(C)C)NC(=O)[C@H](CCCNC(=N)N)NC1=O)C(=O)N[C@@H](C)C(=O)N[C@@H](C(C)C)C(=O)N[C@@H](CC(C)C)C(=O)N[C@@H](CO)C(=O)N[C@@H](CSSC[C@@H](C(=O)N[C@@H](CCCNC(=N)N)C(=O)N[C@@H](CCCNC(=N)N)C(=O)N[C@@H](CCCCN)C(=O)N[C@@H](CCCCN)C(N)=O)NC2=O)C(=O)N[C@@H](CC(C)C)C(=O)N1CCC[C@H]1C(=O)N[C@@H](CCCCN)C(=O)N[C@@H](C)C(=O)N[C@@H](CCC(=O)O)C(=O)N[C@@H](CCC(N)=O)C(=O)N[C@@H]([C@@H](C)CC)C(=O)NCC(=O)N[C@@H](CCCCN)C(=O)N3)[C@@H](C)O)[C@@H](C)CC` gave a Ki of 222 nM (MC4R; ligand displacement in cells).
For `CC(C)C[C@@H](CN[C@@H](CC(C)C)C(=O)N[C@@H](CCC(N)=O)C(=O)N[C@@H](Cc1ccccc1)C(=O)O)NC(=O)[C@H](CO)NC(=O)[C@H](Cc1ccccc1)NC(=O)[C@@H]1CCCN1C(=O)[C@@H](N)CCCCN`, the Ki was 43 ± 5 nM (Plasmepsin I (PMI, Plasmodium falciparum, UniProt Q7KQM4)).

For quick reference, copied from above:
`CCCc1cc(C(=O)[C@H]2C=CN([C@@H]3O[C@H](COP(=O)(O)OP(=O)(O)OC[C@H]4O[C@@H](n5cnc6c(N)ncnc65)[C@H](O)[C@@H]4O)[C@@H](O)[C@H]3O)C=C2C(N)=O)ccn1` has a Ki of 11 ± 6 nM (inhA (Mycobacterium leprae, UniProt Q9CBM1)).
The Ki of `CC[C@H](C)[C@H](NC(=O)CN)C(=O)N[C@H](C(=O)N[C@@H](CC(N)=O)C(=O)N[C@H](C(=O)N[C@@H](CC(C)C)C(=O)N[C@@H](CCC(N)=O)C(=O)N[C@@H](CCC(N)=O)C(=O)N[C@@H](Cc1ccc(O)cc1)C(=O)N[C@@H](Cc1ccc(O)cc1)C(=O)N[C@H]1CSSC[C@@H]2NC(=O)[C@H](CCC(N)=O)NC(=O)[C@H](CCC(N)=O)NC(=O)CNC(=O)[C@H](CCC(N)=O)NC(=O)[C@H]([C@@H](C)O)NC(=O)[C@H](CO)NC(=O)[C@@H]3CSSC[C@H](NC(=O)[C@H](CCC(N)=O)NC(=O)CNC(=O)CNC(=O)[C@H](CCC(N)=O)NC(=O)[C@H](C(C)C)NC(=O)[C@H](CCC(N)=O)NC1=O)C(=O)N[C@@H](C)C(=O)N[C@@H](C(C)C)C(=O)N[C@@H](CC(C)C)C(=O)N[C@@H](CO)C(=O)N[C@@H](CSSC[C@@H](C(=O)N[C@@H](CCC(N)=O)C(=O)N[C@@H](CCC(N)=O)C(=O)N[C@@H](CCC(N)=O)C(=O)N[C@@H](CCC(N)=O)C(N)=O)NC2=O)C(=O)N[C@@H](CC(C)C)C(=O)N1CCC[C@H]1C(=O)N[C@@H](CCC(N)=O)C(=O)N[C@@H](CCC(=O)O)C(=O)N[C@@H](CCC(=O)O)C(=O)N[C@@H](CCC(N)=O)C(=O)N[C@@H]([C@@H](C)CC)C(=O)NCC(=O)N[C@@H](CCC(N)=O)C(=O)N3)[C@@H](C)O)[C@@H](C)CC` is reported as greater than 5000 nM (MC4R; HEK-293T transfected; 2 h, 37 °C, with: Eu-NDP-MSH).
